Experimental data from different studies.
Every numbered part comes from another study and shows a few of its results, in no order. Changes are numbered by the printed parent chain.

Sample 1 — method: protein binding microarray; molecule type: double-stranded DNA, one strand shown; medium: in vitro; concentration: not given; baseline: not given; direction: higher = stronger binding
Target: Histone acetyltransferase KAT6A, winged helix 2, GST fusion (KAT6A, Homo sapiens, UniProt Q92794, residues 85-181)
Notes: 8-mer, flanks averaged, mean of 2 arrays, mostly near background
Residues (chain): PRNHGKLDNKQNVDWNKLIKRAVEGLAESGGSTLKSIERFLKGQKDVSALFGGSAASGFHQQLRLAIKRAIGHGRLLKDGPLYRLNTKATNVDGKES
| Sequence | E-score |
| --- | --- |
| AGGGTGGG | 0.0576 |
| AACTCCAG | 0.0087 |
| CTGCCGCA | 0.0108 |
| ACGCCGCG | 0.125 |
| ACCAAAGT | -0.109 |
| ATCCACGC | -0.0894 |
| CTTCCGAA | 0.0661 |
| GCGTAGAA | 0.0352 |
| AAAGCCCA | 0.0966 |
| ATCAGGCG | 0.0226 |
| ATCAACCC | 0.0563 |
| AACGTTTC | -0.0887 |
| AGTCCAGC | 0.0263 |

Sample 2 — method: Sort-seq; refers to: YFP reporter; medium: E. coli; notes: PhoQ-PhoP variant library; added: 10 µM Mg2+; baseline: high Mg2+ state; direction: higher = stronger signaling
Substance: PhoQ, residues 284 288 289 292 302 303 AGGCYF
| target | fold induction |
| --- | --- |
| PhoP, residues 12 14 15 18 19 AYFRS (Escherichia coli, UniProt P23836) | 16 |
| PhoP, residues 12 14 15 18 19 SFCSL (Escherichia coli, UniProt P23836) | 18.2 |
| PhoP, residues 12 14 15 18 19 HHYTI (Escherichia coli, UniProt P23836) | 3.71 |

Sample 3 — method: RNA Bind-n-Seq; molecule type: RNA; medium: in vitro; concentration: 365 nM; baseline: no-protein control; direction: higher = stronger binding
Target: RNA binding protein fox-1 homolog 2, RRM domain, GST-SBP tag (RBFOX2, Homo sapiens, UniProt O43251-10, residues 100-194)
Notes: natural RNA segment, single round, ends assumed
Constant ends, left off below: GGGAGUUCUACAGUCCGACGAUC … UGGAAUUCUCGGGUGCCAA
Residues (chain): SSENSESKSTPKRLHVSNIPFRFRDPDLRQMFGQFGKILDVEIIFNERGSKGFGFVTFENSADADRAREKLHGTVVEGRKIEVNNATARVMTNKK
| Sequence | RBNS enrichment (R) |
| --- | --- |
| UUUUGCCAAUAUAAUGAGUAUUACAUUGGCCUUGGGGGACAGAAAGGAGGAAGUUCUGACUUUUCAGGGCUACCUUAUUUCUACUAAGGACCCAGAGCAGGCCUGUCCAU | 0.227 |
| AGGCUUCAGAGGUACCUGGCACCUUACUCAAGCAAAAACAAAAAACAGCUUUACUUCAAAAGCAUGUGCCUCUGGUAAAUUAUCCAUCACUUUUGUUUUAAAGUGGUCCC | 0.444 |
| CAGUAGAGUGGACACCUCGGCCGUGGCCACUUUAGAGGGGGAAAAGUUUAAGUUUUAAACUAAAAGUUACAGAAUUGAAUGUGGAUACCGGCUUCAUUCACCCCCACUUG | 0.321 |
| ACCACUUAGGUUAGAAAGAAACAGGAAUCAUCCUAGGCAGGAAAAUUACUCCACUUUUUUUUAAGUGUCCUUCCAAUAACUAAUGCCACUCAUCAGCAUUGUCCUCUUUG | 0.381 |
| GAGCACACUGCCUCAUUUUCCUCACCAACAAGACAAAGCCUUUCCAAUGAUUUUUUUUUAAACUUUCAAAGUGGUUGUUCAAAGUGUAGCAACUUGUAUGUUGAAAUGAU | 0.58 |
| GGGUGGGAUUCCACUCGUGUGUUUCUAUUUUUUGAAAAGCAGACAUUUUAAAAAAUGGUCACGUUUGGUGCUUCUCAGAUUUCUGAGGAAAUUGCUUUGUAUUGUAUAUU | 1.94 |
| GUGAAAAGUCAUCACAAGACUCCUAGGUCAUUAUAAGAAUUAAAGAUUUGAAAGAGUAAUAUAAUAUAAGCUUGGUGAGGCUUUGUGGCUUUUUGUUCUACUCUUCCCAU | 1.09 |
| GACCCCCACUUAGCCCUUCUCUCCUUGCAGCCUAGCAGUUUAUAGUUCUGAGAUGGAAAGUUGAAGGGGGCAAGCAAGACCUCUCCUCAGCCCAUGCCCAGCUGUCAGGA | 0.551 |
| UGGGGAGGGCCAGAGGAAGUGGUCUAUCUCAACUGUAAGGCCCAUCCCCUCUUAACCAUGACCAGCGGAAGCAGGUGUGUGUGACCAGGGCACGGGGUGAAGAAUCUGCC | 0.224 |
| GCUUGGACAAUCUUAGUAUUUACACGUGAGAUGAAAUGAAGAGUCCCGUGUGCUGCUCUGUGUGCAAGAGUACUGACCGCUCUGCUGAACCUUCAUGUCUUUUCUAGUGG | 0.442 |
| UCACGGAAAGUUUCUUACUCAUCCCUGUGACUUUGGCUUUAUUUUACAAUAAAACACUGAAAAUGUCCACUUUGUUAGUUGUGAACAUGAGCCCAGGCCUAAGGUGCUGG | 0.249 |
| UAAUUUUGAGGCAUAGGGUAGCUUACGUAGUGGAGGAUGUGCCAAAUAUUCUCUUCAAAUGCCACCUUCUCAAUUUAUAACUAAAAUAGUGUUAUCUGACUAAUUCCUCU | 0.199 |

Sample 4 — target: CCNE2, cyclin fold, Cln2 fusion (human); method: yeast growth competition, sequencing; medium: yeast; notes: strong parent motif; baseline: not given; direction: higher = stronger binding
Parent: WEE1 docking peptide (human); HKTFRKLRLFDTP
| Variant | normalised enrichment score |
| --- | --- |
| T3Q | 0.193 |
| P13N | 1.49 |
| K6S | 1.01 |
| L9A | 0.595 |
| T12P | 0.733 |
| F10W | 1.01 |
